# Measurements from different studies.
# Numbered parts are unrelated; each lists some results of a single study.
# Sequence of UniProt Q8N568 (whole entry, looked up): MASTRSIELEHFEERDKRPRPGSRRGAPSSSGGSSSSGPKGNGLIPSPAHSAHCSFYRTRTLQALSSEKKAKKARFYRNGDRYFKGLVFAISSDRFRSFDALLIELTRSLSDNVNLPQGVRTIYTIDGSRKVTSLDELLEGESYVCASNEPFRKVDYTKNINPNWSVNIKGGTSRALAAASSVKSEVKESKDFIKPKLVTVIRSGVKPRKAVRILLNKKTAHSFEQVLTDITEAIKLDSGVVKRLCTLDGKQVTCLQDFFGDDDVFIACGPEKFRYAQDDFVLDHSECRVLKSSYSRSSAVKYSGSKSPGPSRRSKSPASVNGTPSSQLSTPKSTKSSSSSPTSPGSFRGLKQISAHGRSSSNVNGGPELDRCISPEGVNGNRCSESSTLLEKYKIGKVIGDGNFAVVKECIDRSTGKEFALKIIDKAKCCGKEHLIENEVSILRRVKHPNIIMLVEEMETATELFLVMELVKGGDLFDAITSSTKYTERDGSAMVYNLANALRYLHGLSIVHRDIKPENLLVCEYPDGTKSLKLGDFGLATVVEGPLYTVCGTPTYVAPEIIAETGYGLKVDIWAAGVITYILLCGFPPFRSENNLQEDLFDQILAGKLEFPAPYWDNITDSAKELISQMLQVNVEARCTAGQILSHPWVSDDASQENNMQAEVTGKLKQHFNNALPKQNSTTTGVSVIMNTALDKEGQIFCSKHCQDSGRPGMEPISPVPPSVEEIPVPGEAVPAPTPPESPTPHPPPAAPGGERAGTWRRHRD
# Sequence of UniProt P31751 (whole entry, looked up): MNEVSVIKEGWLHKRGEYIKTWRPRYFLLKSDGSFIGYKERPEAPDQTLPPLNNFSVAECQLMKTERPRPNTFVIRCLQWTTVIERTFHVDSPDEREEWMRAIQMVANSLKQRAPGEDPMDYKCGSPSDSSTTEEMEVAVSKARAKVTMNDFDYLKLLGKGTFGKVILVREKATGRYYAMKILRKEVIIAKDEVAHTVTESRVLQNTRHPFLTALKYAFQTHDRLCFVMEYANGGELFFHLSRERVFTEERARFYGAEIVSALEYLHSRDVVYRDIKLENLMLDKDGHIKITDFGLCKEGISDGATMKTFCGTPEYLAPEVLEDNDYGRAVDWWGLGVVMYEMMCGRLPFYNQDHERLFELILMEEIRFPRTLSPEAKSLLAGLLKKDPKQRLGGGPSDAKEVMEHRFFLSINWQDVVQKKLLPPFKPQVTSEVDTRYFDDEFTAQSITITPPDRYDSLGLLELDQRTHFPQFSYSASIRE
# Sequence of UniProt P28222 (whole entry, looked up): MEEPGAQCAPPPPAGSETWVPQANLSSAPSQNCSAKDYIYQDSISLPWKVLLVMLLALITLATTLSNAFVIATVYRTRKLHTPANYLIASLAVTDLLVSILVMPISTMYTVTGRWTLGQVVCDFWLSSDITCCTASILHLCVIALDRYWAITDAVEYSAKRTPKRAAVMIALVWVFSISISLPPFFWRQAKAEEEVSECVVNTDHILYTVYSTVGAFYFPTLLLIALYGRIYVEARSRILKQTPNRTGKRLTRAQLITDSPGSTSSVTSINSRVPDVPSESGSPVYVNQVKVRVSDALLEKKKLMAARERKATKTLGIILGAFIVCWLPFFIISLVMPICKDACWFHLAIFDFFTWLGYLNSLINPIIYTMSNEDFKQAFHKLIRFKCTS
# Sequence of UniProt P49761 (whole entry, looked up): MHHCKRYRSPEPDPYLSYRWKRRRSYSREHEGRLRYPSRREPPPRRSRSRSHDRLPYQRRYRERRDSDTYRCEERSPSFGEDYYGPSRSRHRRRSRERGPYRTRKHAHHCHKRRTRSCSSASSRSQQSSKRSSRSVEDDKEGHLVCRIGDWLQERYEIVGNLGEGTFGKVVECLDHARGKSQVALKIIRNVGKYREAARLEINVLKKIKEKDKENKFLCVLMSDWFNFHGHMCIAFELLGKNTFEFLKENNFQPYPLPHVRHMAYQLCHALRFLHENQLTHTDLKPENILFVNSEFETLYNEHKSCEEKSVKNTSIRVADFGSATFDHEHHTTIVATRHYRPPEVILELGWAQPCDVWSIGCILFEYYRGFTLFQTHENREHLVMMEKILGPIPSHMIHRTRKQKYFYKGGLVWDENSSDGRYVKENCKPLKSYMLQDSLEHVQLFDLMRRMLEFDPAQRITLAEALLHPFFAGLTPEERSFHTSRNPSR
# Sequence of UniProt Q7KZI7 (whole entry, looked up): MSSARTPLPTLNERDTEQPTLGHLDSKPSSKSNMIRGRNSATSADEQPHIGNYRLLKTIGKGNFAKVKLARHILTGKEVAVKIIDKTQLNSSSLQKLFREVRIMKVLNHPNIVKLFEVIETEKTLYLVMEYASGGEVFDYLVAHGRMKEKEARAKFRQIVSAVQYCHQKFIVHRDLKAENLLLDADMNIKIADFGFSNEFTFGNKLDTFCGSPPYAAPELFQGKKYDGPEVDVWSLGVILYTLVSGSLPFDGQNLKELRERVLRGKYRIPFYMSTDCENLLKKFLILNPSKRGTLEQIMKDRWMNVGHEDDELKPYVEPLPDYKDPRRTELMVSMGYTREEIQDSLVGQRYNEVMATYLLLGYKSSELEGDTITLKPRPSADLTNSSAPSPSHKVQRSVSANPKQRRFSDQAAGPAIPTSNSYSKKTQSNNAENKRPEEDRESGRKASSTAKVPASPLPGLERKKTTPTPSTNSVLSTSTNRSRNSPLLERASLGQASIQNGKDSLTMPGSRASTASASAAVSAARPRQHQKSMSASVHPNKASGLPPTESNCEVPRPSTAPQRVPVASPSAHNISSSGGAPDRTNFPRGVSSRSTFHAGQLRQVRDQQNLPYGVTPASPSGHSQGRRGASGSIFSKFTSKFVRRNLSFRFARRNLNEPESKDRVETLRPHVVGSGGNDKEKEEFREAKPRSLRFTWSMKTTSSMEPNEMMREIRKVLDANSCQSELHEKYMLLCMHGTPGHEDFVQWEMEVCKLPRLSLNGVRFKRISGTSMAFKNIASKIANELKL
# Sequence of UniProt O75914 (whole entry, looked up): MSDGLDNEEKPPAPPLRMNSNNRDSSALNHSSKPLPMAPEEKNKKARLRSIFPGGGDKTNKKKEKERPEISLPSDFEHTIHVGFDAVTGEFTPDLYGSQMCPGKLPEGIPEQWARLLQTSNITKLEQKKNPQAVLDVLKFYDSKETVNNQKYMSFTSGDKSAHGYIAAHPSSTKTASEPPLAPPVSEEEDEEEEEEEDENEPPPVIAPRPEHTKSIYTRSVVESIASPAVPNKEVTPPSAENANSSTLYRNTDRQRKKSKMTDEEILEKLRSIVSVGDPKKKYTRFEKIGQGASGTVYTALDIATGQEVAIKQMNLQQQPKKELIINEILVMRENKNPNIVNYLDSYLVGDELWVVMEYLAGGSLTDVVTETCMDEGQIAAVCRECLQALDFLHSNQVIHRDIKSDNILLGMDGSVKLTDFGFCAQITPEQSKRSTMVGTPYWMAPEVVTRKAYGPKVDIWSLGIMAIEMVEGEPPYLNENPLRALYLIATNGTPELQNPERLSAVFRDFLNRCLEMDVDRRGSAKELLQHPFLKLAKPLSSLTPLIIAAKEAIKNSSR
# Sequence of UniProt Q96L34 (whole entry, looked up): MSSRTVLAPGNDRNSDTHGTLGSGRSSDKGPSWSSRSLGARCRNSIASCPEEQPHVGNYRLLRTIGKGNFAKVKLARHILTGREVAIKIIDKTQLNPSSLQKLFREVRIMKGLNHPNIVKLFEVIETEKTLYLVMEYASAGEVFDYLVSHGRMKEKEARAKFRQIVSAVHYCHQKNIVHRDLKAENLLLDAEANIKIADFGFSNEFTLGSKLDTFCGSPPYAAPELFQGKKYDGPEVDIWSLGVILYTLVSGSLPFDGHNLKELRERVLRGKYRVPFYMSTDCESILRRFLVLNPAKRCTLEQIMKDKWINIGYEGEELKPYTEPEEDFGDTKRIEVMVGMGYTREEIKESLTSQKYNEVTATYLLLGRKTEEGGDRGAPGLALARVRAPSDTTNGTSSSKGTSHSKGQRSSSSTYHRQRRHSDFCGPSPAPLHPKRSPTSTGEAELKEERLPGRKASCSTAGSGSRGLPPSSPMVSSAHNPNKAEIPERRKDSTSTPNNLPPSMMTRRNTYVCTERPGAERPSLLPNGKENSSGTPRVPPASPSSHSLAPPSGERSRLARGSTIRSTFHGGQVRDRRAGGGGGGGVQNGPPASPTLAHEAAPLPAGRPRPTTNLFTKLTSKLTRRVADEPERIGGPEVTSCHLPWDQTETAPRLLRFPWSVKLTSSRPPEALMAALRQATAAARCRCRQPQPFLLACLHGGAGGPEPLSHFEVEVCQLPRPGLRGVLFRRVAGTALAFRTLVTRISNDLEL
# Sequence of UniProt P06493 (whole entry, looked up): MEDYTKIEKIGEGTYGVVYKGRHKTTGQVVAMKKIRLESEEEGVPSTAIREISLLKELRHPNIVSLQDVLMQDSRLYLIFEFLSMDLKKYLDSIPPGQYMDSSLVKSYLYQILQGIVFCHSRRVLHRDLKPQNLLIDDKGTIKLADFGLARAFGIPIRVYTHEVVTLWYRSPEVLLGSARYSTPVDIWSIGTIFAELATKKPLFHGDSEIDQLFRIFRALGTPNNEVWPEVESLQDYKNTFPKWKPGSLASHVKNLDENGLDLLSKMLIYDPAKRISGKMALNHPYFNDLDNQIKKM

# Sample 1 — effect on: enzyme activity; mode: inhibitor; concentration: 0.5 µM; reference: control
# SMILES: CSc1nc(-c2ccnc(N[C@@H](C)c3ccccc3)c2)c(-c2ccc(F)cc2)[nH]1 (racemic)
target,remaining activity
"Cyclin-dependent kinase 9, with cyclin K (CDK9, Homo sapiens, UniProt P50750)",91.1%
"RPS6KA4 (Homo sapiens, UniProt O75676)",96.5%
"MARK2 (Homo sapiens, UniProt Q7KZI7)",90.7%
"DCLK2 (Homo sapiens, UniProt Q8N568)",92.7%
"DDR2 (Homo sapiens, UniProt Q16832)",89.8%
"PAK3 (Homo sapiens, UniProt O75914)",94.5%
"Myosin-IIIb (MYO3B, Homo sapiens, UniProt Q8WXR4)",100%
"CDC42BPB (Homo sapiens, UniProt Q9Y5S2)",98.8%
"TLK2 (Homo sapiens, UniProt Q86UE8)",106%
"MARK4 (Homo sapiens, UniProt Q96L34)",74.6%
"AKT2 (Homo sapiens, UniProt P31751)",96.8%
"Cyclin-dependent kinase 1, with cyclin A (CDK1, Homo sapiens, UniProt P06493)",78%
"CLK3 (Homo sapiens, UniProt P49761)",85.4%

# Sample 2 — mode: agonist
# Target: Beta-1 adrenergic receptor (ADRB1, Homo sapiens, UniProt P08588)
# Sequence of UniProt P08588 (whole entry, looked up): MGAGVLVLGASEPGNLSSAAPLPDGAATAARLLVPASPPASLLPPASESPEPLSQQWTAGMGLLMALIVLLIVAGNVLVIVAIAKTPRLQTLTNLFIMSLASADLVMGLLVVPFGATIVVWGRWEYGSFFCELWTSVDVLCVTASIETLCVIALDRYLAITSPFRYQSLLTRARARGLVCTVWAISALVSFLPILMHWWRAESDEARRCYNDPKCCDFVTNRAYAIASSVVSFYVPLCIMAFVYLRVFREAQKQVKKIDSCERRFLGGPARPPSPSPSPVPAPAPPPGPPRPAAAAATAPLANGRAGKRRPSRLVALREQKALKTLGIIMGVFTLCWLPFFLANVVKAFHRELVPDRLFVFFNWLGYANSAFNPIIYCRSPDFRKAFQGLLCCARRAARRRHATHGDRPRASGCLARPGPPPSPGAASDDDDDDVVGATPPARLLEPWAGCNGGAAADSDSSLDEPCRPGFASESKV
Structure (SMILES),EC50 [µM]
CN(CCC(O)c1ccccc1)C(=O)c1coc(Cn2cnc3ccccc32)n1 (centres unmarked),≥ 100
c1ccc(-c2nc3c(c(N4CCNCC4)n2)CCC3)cc1,3.55
Cc1noc2c(-c3cn[nH]c3)cc(-c3cccc(C(F)(F)F)c3)nc12,≥ 100
Cc1cc2c(F)c(Oc3ncnn4cc(OCC(C)O)c(C)c34)ccc2[nH]1 (centres unmarked),≥ 100
CCCC1C=CCN1C(=O)c1cc(-c2ccncc2)nc2ccccc12 (centres unmarked),≥ 100
C[S+](=O)([O-])Nc1ccc(OC[C@@H](O)CNCCc2ccc(Cl)c(Cl)c2)cc1,12.6
COCc1nc(NCCc2nc(-c3ccccn3)no2)c2cnn(C)c2n1,≥ 100

# Sample 3 — host: mouse; matrix: microsomes or S9; concentration: 2 µM; time: 0.5 h
Structure (SMILES),remaining compound
CC1CCC(c2c[nH]c3ccc(Cl)cc23)C(=O)C1 (centres unmarked),4.85%
O=c1[nH]cnc2c1sc1nc(-c3ccccc3)cc(-c3ccccc3)c12,49.8%
CCC(C)n1c(=O)c2sccc2n2c(CCCC(=O)N3CCc4ccccc4C3)nnc12 (centres unmarked),0.872%
Nc1ncnc2c1ncn2C/C=C/CN1CCN(Cc2ccccc2)CC1,87.7%
O=C1CN(C2CCCC2)C(=O)N1Cc1cc2c(cc1Br)OCO2,> 100%

# Other studies, line by line
SMILES,tested on,assay,system,setting,measurement,result
NC(=O)c1ccc2nc(-c3ccc(C4(N)CCC4)cc3)c(-c3ccccc3)n2n1,"HTR1B (Homo sapiens, UniProt P28222)",ligand displacement,,10 µM,inhibition,10.2%
CC(C)n1cnc(-c2ccc(F)cc2)c1-c1ncc(C(=O)Nc2ccc(N3CCN(C)CC3)cc2)[nH]1,,,"human, idiopathic pulmonary fibrosis","30 mg once daily, trial, treatment-emergent",patients with blurred vision,0%
"COc1ccc2c(c1)O[C@H](c1ccc(OC)c(OC)c1)C[C@@H]2NC(=O)C1(c2ccc3c(c2)OC(F)(F)O3)CC1 (single isomer, unassigned)","TMEM97 (Homo sapiens, UniProt Q5BJF2)",binding,,off-target scan,Ki,1.19 µM
Cn1cncc1[C@@](O)(COc1ccc(C#N)cc1-c1ccc(OC(F)(F)F)cc1)c1ccc(C#N)cc1,HEK293T,high-content imaging,,"10 µM, 24 h",cells with healthy nuclei,64%

# Some of these lines once more (other studies, line by line):
SMILES,tested on,assay,system,setting,measurement,result
"COc1ccc2c(c1)O[C@H](c1ccc(OC)c(OC)c1)C[C@@H]2NC(=O)C1(c2ccc3c(c2)OC(F)(F)O3)CC1 (single isomer, unassigned)","TMEM97 (Homo sapiens, UniProt Q5BJF2)",binding,,off-target scan,Ki,1.19 µM
Cn1cncc1[C@@](O)(COc1ccc(C#N)cc1-c1ccc(OC(F)(F)F)cc1)c1ccc(C#N)cc1,HEK293T,high-content imaging,,"10 µM, 24 h",cells with healthy nuclei,64%
